Experimental data gathered from unrelated publications.
Compare with care: the assays were run in different laboratories. ± marks the error that the study gave.

| Compound | target or system | test | test system | setting | how to read | measurement | result |
| --- | --- | --- | --- | --- | --- | --- | --- |
| C[n+]1cc(/C=N/NC(=O)c2cncc(C(=O)N/N=C/c3cc4ccccc4[n+](C)c3)n2)cc2ccccc21 | hp2 hairpin duplex DNA | FRET melting |  | 1 µM, added: ds26 10 µM |  | ΔTm | 0.7 °C |
| CNS(=O)(=O)Nc1nccc(Cc2c(C)c3ccc(Oc4ncccc4F)cc3oc2=O)c1F | PC-9 | cell viability |  | 7 days |  | IC50 | 0.179 µM |
| Nc1ncc(-c2cc(-c3cnn(CC(F)(F)F)c3)ncc2F)nc1C(=O)NC1CNCC(F)C1 (stereo not shown) | DDR1 | KINOMEscan |  | 1 µM | relative to: DMSO control | remaining binding | 96% |
| COC1CN([C@H]2CC[C@H]([C@@]3(C)Oc4c(Cl)cc(C(=O)NCc5c(SC)cc(C)[nH]c5=O)c(C)c4O3)CC2)C1 |  | RNA-seq, measured: GPCPD1 mouse homolog | mouse, HT-1376 xenograft, whole blood | dose not given | relative to: vehicle | log2 fold change | 0.436 |
| C=CC(=O)Nc1cccc(Cn2ncc3cnc(Nc4cnn(CCOC)c4)nc32)c1 | PIK3CD human | binding, KINOMEscan |  | 100 nM | lower = stronger binding | percent of control | 62% |
| COCC/N=C(\S)N/N=C(\C)c1ccccc1O | Mus musculus | gene silencing, high-content imaging | LDR reporter GFP cells | retest run 2 |  | AC50 | 12.6 µM |
| CC[n+]1cccc2cc(/C=N/NC(=O)N/N=C/c3ccc4c(ccc[n+]4CC)c3)ccc21 | hp2 hairpin duplex DNA | FRET melting |  | 1 µM, added: ds26 10 µM |  | ΔTm | 1.2 ± 0.4 °C |
| Cc1ncsc1-c1ccc(C(C)NC(=O)C2CC(O)CN2C(=O)C(NC(=O)CCCCCCCCCCN2CCCC(Nc3ncc(Cl)c(Nc4ccccc4S(=O)(=O)C(C)C)n3)C2)C(C)(C)C)cc1 (stereo not shown) | 22Rv1 | RNA-seq, measured: TGIF2 mRNA |  | concentration not given | relative to: DMSO | log2 fold change | -1.66 |
| O=C(N/N=C/c1ccc(C[n+]2ccccc2)cc1)c1cccc(C(=O)N/N=C/c2ccc(C[n+]3ccccc3)cc2)c1 | MYC parallel G4 DNA | FRET melting |  | 1 µM, DNA 0.2 µM, added: duplex DNA competitor 10 µM |  | ΔTm | 2.3 ± 0.3 °C |
| C=CC(=O)N1[C@H](c2ccc3c(c2)OCO3)c2[nH]c3ccccc3c2C[C@@H]1C(=O)N1CCN(C)CC1 | human cyclin E1 N112C-3xFLAG:CDK2 | co-IP with TMT proteomics, measured: NPM1 |  | concentration not given, P06748 | relative to: wild type DMSO | relative co-enrichment | 101% |

A few entries again:
| Compound | target or system | test | test system | setting | how to read | measurement | result |
| --- | --- | --- | --- | --- | --- | --- | --- |
| COCC/N=C(\S)N/N=C(\C)c1ccccc1O | Mus musculus | gene silencing, high-content imaging | LDR reporter GFP cells | retest run 2 |  | AC50 | 12.6 µM |
